Results collected from several papers.
Compare with care: the assays were run in different laboratories. Values joined by “and” are separate records of one study, mostly repeats; a detail may differ. ± gives the spread as reported.

COc1nnc2ccc(N3CCC(c4ccc(OCCN5CCN(C)C(=O)[C@H]5C)cc4)CC3)nn12  Tmax (patients, plasma; oral, 15 mg twice daily, multiple dose, monotherapy, median): 2.12 h
CC(F)(F)c1nc2nc(CO)cc(Nc3ccc(S(F)(F)(F)(F)F)cc3)n2n1  Tmax (LC-MS/MS, non-compartmental; malaria patients; 250 mg of parent drug, median): 112 h
N[C@@H](Cc1ccc(O)c(O)c1)C(=O)O  Tmax (Parkinson's disease patients, plasma; oral, high carbidopa AUC subgroup (11.5 µmol·h/L), median): 0.5 h
CN(CCC(=O)O)C(=O)c1ccc2c(c1)CC[C@@H]1[C@@H]2CC[C@]2(C)C(c3cncc(F)c3)=CC[C@@H]12  Tmax (postmenopausal women, plasma; 60 mg twice daily, day 14, multiple dose, median): 2.03 h
OC[C@H]1O[C@@H](c2cc(Cc3ccc(C4CC4)cc3)c(Cl)c3c2CCO3)[C@H](O)[C@@H](O)[C@@H]1O  Tmax (healthy Korean adults, fasted, plasma; oral, 0.3 mg single dose, fixed-dose combination, median, added: co-administered drug 50 mg): 1.25 h
CC(=O)Nc1ccc(C[C@H](NC(=O)[C@H](CO)NC(=O)[C@@H](Cc2cccnc2)NC(=O)[C@@H](Cc2ccc(Cl)cc2)NC(=O)[C@@H](Cc2ccc3ccccc3c2)NC(C)=O)C(=O)N[C@H](Cc2ccc(NC(C)=O)cc2)C(=O)N[C@@H](CC(C)C)C(=O)N[C@@H](CCCCNC(C)C)C(=O)N2CCC[C@H]2C(=O)N[C@H](C)C(N)=O)cc1  Tmax (healthy men, fasted, serum; oral, 10 mg single dose): 1.6 ± 0.7 h
CCCCC[C@H](O)CC[C@@H]1[C@H]2Cc3cccc(OCC(=O)O)c3C[C@H]2C[C@H]1O  Tmax (LC-MS/MS; Japanese PAH patients, no background therapy, plasma; inhaled, 54 µg, mean): 0.2 h
N#Cc1cccc(-c2ccc3ncc(-c4cc(F)cc(F)c4)c(N4CCC(N)CC4)c3c2)c1O  Tmax (healthy male, plasma total radioactivity; oral, 20 mg, median): 1 h
CO[C@H]1CC[C@H](N2C(=O)CNc3ncc(-c4ccc(C(C)(C)O)nc4)nc32)CC1  Tmax (patients, plasma; oral, 7.5 mg, day -1, median): 1 h
C[C@H]1CN(C(=O)CC#N)[C@]12CCN(c1ncnc3[nH]ccc13)C2  Tmax (healthy Japanese males; oral, 100 mg single dose, median): 1 h
C=C(F)C(=O)N1CCN(c2nc(OC[C@@H]3CCCN3C)nc3c2CCN(c2cccc4cccc(Cl)c24)C3)C[C@@H]1CC#N  Tmax (cancer patients, plasma; 600 mg): 5.69 h
C=CC[C@@H]1/C=C(\C)C[C@H](C)C[C@H](OC)[C@H]2O[C@@](O)(C(=O)C(=O)N3CCCC[C@H]3C(=O)O[C@H](/C(C)=C/[C@@H]3CC[C@@H](O)[C@H](OC)C3)[C@H](C)[C@@H](O)CC1=O)[C@H](C)C[C@@H]2OC  Tmax (healthy adults, whole blood; oral, median): 1.5 h and 1.75 h
CCc1nc(C(N)=O)c(Nc2ccc(N3CCC(N4CCN(C)CC4)CC3)c(OC)c2)nc1NC1CCOCC1  Tmax (Japanese patients, plasma; oral, 200 mg, cycle 1 day 28, multiple doses, median): 6 h
CC(C)(CO)c1cc2cc(NC(=O)C3(c4ccc5c(c4)OC(F)(F)O5)CC3)c(F)cc2n1C[C@@H](O)CO  Tmax (human, plasma; oral, standard ETI dose): 2 h
CCCCC1=NC2(CCCC2)C(=O)N1Cc1ccc(-c2ccccc2S(=O)(=O)Nc2noc(C)c2C)c(COCC)c1  Tmax (healthy adult volunteers, plasma; oral, 400 mg, 14 days repeated dosing, fasted, crushed tablet): 2 h

Repeated from above:
CCc1nc(C(N)=O)c(Nc2ccc(N3CCC(N4CCN(C)CC4)CC3)c(OC)c2)nc1NC1CCOCC1  Tmax (Japanese patients, plasma; oral, 200 mg, cycle 1 day 28, multiple doses, median): 6 h
CC(C)(CO)c1cc2cc(NC(=O)C3(c4ccc5c(c4)OC(F)(F)O5)CC3)c(F)cc2n1C[C@@H](O)CO  Tmax (human, plasma; oral, standard ETI dose): 2 h
